Measured values gathered from unrelated publications.
± gives the spread as reported.
UniProt P21709, sequence (whole entry, looked up): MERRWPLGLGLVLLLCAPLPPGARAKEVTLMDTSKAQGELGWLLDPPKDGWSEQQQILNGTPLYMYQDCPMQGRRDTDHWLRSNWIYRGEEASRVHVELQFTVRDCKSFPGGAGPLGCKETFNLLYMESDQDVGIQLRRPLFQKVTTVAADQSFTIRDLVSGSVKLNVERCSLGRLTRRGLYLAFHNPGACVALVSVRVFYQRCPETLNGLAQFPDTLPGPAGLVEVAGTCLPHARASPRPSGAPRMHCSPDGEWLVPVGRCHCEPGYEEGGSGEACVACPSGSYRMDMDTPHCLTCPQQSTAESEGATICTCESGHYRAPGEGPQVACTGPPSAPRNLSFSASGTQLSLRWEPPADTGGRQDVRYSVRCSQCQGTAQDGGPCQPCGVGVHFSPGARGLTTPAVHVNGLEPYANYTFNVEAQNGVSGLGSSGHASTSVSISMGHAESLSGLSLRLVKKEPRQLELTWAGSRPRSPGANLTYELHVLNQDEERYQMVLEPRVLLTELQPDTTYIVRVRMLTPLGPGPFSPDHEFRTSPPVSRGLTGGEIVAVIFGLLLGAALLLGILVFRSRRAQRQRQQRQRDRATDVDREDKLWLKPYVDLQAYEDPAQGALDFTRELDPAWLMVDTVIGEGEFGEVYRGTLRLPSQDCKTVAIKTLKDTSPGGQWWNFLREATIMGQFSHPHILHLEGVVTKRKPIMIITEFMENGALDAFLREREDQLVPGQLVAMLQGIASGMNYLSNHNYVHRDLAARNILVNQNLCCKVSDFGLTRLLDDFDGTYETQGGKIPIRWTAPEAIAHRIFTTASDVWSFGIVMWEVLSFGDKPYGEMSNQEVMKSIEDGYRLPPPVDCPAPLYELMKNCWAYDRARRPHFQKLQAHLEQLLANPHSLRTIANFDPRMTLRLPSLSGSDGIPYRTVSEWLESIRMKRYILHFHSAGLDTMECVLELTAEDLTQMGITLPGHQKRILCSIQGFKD

| Compound | target or system | test | system | conditions | how to read | quantity | value |
| --- | --- | --- | --- | --- | --- | --- | --- |
| CC1COC2=C1C(=O)C(=O)c1c2ccc2c1C(OC(=O)CNC(=O)CN)CCC2(C)C (mixture of isomers) | – | – | saline with 20% PEG 400 | 24 h, 25 °C | – | equilibrium solubility | 509 µg/mL |
| O=c1cc(-c2ccc(O)cc2)oc2c([C@@H]3OC[C@H](O)[C@H](O)[C@H]3O)c(O)c([C@@H]3O[C@H](CO)[C@@H](O)[C@H](O)[C@H]3O)c(O)c12 | – | – | rat | ip, 150 mg/kg | – | AUC(0-inf) | 26000 ng·h/mL |
| CC[C@H](C)[C@H](NC(=O)[C@H](CO)NC(=O)[C@H](Cc1ccc(O)cc1)NC(=O)[C@H](Cc1ccc(O)cc1)NC(=O)[C@H](CC(N)=O)NC(=O)CNC(=O)[C@H](CO)NC(=O)[C@H](Cc1ccc(O)cc1)NC(=O)[C@H](CO)NC(=O)[C@H](CO)NC(=O)[C@H](CC(N)=O)NC(=O)COCCOCCNC(=O)CN1CCN(CC(=O)O)CCN(CC(=O)O)CCN(CC(=O)O)CC1)C(=O)N[C@@H](CC(C)C)C(N)=O [copper-64 labelled] | – | dynamic PET | tamoxifen-induced PDAC mouse model, pancreas | 5.5 min, CLDN4-expressing tumours | – | maximum pancreas uptake | 16.6 %IA/cc |
| COc1nc(CC=C(C)CC=CC(C)=CC(C)C(OC2OC(CO)C(O)C(O)C2O)C(C)=CCO)c(C)c(O)c1OC (stereo not drawn) | – | – | C57BL/6 mouse, plasma | oral, 10 mg/kg | – | clearance | 203 ± 22.8 L/h/kg |
| CC(C)[C@@H]1NC(=O)CNC(=O)[C@H](CC(N)=O)NC(=O)[C@H](CCCNC(=N)N)NC(=O)[C@H](Cc2ccc(O)cc2)NC(=O)[C@H](C(C)C)NC(=O)[C@@H](NC(=O)[C@@H](NC(=O)[C@H](CC(N)=O)NC(=O)[C@H](Cc2c[nH]c3ccccc23)NC(=O)[C@H](C)NC(=O)[C@H](Cc2ccccc2)NC(=O)CNC(=O)[C@H](CCCCN)NC(=O)[C@H](Cc2ccccc2)NC(=O)[C@H](Cc2ccccc2)NC(=O)[C@H](CCCCN)NC(=O)OCC2c3ccccc3-c3ccccc32)C(C)C)CSSC[C@@H](C(=O)N[C@@H](Cc2c[nH]cn2)C(=O)N[C@@H](CCCNC(=N)N)C(=O)N[C@@H](CCCNC(=N)N)C(=O)N[C@@H](C)C(=O)N[C@@H](CC(N)=O)C(N)=O)NC(=O)[C@H](C(C)C)NC(=O)[C@H](CCCNC(=N)N)NC1=O | – | – | ICR mouse, blood | intramammary, 5 mg/kg, day 5, 3 d dosing | – | albumin | 35.4 ± 1.21 g/L |
| N[C@H](C(=O)N1CCCC1)C1CCN(c2nccc3c(-c4ncc(Cl)cc4Cl)cccc23)CC1 | GABA-A receptor chloride channel | binding, radioligand binding | – | 10 µM | – | inhibition | 14% |
| O=C1NC2(CC2)COc2ncc(F)cc2[C@H]2COCCN2c2ccn3ncc1c3n2 | – | – | Sprague-Dawley rat, male, thymus | oral, 20 mg/kg/day, 4 weeks, end of treatment | – | organ-to-brain weight ratio | 28.2 ± 5.02% |
| COCCCCNC(=O)CC(Cc1ccc(F)cc1)NC(=O)C(Cc1ccc(Cl)cc1Cl)NC(=O)C(N)Cc1ccccc1C#N (stereo not drawn) | – | – | CD-1 mouse, liver microsomes | 1 µM, time not given, epoxide hydrolase conditions | – | remaining compound | 51% |
| Cc1ccc(NS(=O)(=O)c2c(C(=O)N3CCCCCC3)c(C)n(C)c2C)c(Cl)c1 | human cells | – | – | 1.235 µM, 60 h | – | viability | 97.6% |
| CC[C@H](C)[C@H](NC(=O)[C@H](CCCNC(=N)N)NC(=O)[C@H](CCCCN)NC(=O)[C@H](Cc1ccc(O)cc1)NC(=O)[C@H](CC(=O)O)NC(=O)[C@H](C)NC(=O)CNC(=O)CCOCCOCCOCCNC(=O)CN1CCN(CC(=O)O)CCN(CC(=O)O)CCN(CC(=O)O)CC1)C(=O)N[C@H](C(=O)N[C@@H](CC(C)C)C(=O)N[C@@H](CCCCN)C(=O)N[C@H](C(=O)N[C@@H](CC(N)=O)C(N)=O)C(C)C)[C@@H](C)O [copper-64 labelled] | – | ex vivo gamma counting | C57BL/6J male mice, B16-F10 tumour, thymus | intravenous, 1.85 MBq, 40 min | – | tissue uptake | 0.66 ± 0.171 %ID/g |
| CC[C@H](C)[C@H](NC(=O)[C@H](Cc1ccc(O)cc1)NC(=O)[C@@H](NC(=O)[C@H](CCCNC(=N)N)NC(=O)[C@@H](N)CC(=O)O)C(C)C)C(=O)N[C@@H](Cc1c[nH]cn1)C(=O)N1CCC[C@H]1C(=O)O | – | – | Beagle dogs, both sexes, plasma | subcutaneous, 10 mg/kg/day, day 27 | – | Tmax | 18.8 ± 10.6 min |
| C=Cc1c(C)c2cc3nc(c(CC(=O)O)c4[nH]c(cc5nc(cc1[nH]2)C(C)=C5CC)c(C)c4C(=O)O)[C@@H](CCC(=O)NCCCC[C@H](NC(C)=O)C(=O)N[C@@H](Cc1ccccc1)C(=O)N[C@@H](Cc1ccccc1)C(=O)N[C@H](C(=O)N[C@@H](CC(C)C)C(=O)N[C@@H](CCCCN)C(=O)N[C@@H](CO)C(=O)NCC(=O)N[C@@H](CCC(N)=O)C(=O)N[C@@H](Cc1ccc(O)cc1)C(=O)N[C@@H](C)C(=O)N[C@@H](CO)C(=O)N[C@@H](Cc1ccc(O)cc1)C(=O)N[C@@H](Cc1c[nH]cn1)C(=O)N[C@@H](CS)C(=O)N[C@@H](Cc1c[nH]c2ccccc12)C(=O)N[C@@H](CS)C(=O)N[C@@H](Cc1c[nH]c2ccccc12)C(=O)N[C@@H](CCCNC(=N)N)C(=O)N[C@@H](CC(=O)O)C(=O)N1CCC[C@H]1C(=O)NCC(=O)N[C@@H](CCCNC(=N)N)C(=O)N[C@@H](CO)C(=O)NCC(=O)NCC(=O)N[C@@H](CO)C(=O)N[C@@H](CCCCN)C(N)=O)C(C)C)[C@@H]3C | – | – | mouse, blood | 0 h | – | blood concentration | 187 µg/mL |
| [2H]C([2H])([18F])[C@]([2H])(N)C(=O)O | – | PET | athymic nude mice, U-87 MG | dose not given, 60 min post-injection | reference: tumour over muscle | tumour-to-muscle ratio | 1.23 ± 0.23 |
| COc1ccccc1-c1n[nH]c2nc(NC3CCN(C(=O)Cc4ccc(F)cc4F)CC3)ncc12 | – | bead binding, competition bead pull-down, measured: LINJ.28.2610 | Leishmania donovani axenic amastigote extract | 10 µM | reference: vehicle | relative abundance | 1.14 |
| CC(C)(C)C(=O)OCOP(=O)(OCOC(=O)C(C)(C)C)C1CCCN(O)C1=O (stereo not drawn) | OVCAR-3 | – | – | – | – | TGI | > 100 µM |
| CN(C)[C@H]1C[C@@]23CC[C@@]4(O2)C(=CC[C@]2(C)[C@@H](c5ccc6ccncc6c5)CC[C@H]24)C=C3[C@@H](O)[C@@H]1O | EPHA1 (Homo sapiens, UniProt P21709) | ATP probe labelling, inhibitor, KiNativ profiling | – | 1 µM | – | inhibition | 5.8% |
| Cc1ccccc1-c1ccc(-c2nc(-c3ccc(CN(C)CCCC(=O)O)c([18F])c3)no2)cc1C(F)(F)F | – | – | rat, brain | 1 h | – | tracer uptake | 0.27 %ID/g |
| C=Cc1c(C)c2cc3nc(c(CC(=O)[O-])c4[n-]c(cc5nc(cc1[n-]2)C(C)=C5CC)c(C)c4C(=O)[O-])C(CCC(=O)[O-])C3C.[Cu+2].[Na+].[Na+].[Na+] (stereo not drawn) | – | – | Wistar rat, female | oral, 500 mg/kg daily, 28 days | – | serum albumin | 1.08 ± 0.08 g/dL |

Excerpt of the above:
| Compound | target or system | test | system | conditions | how to read | quantity | value |
| --- | --- | --- | --- | --- | --- | --- | --- |
| [2H]C([2H])([18F])[C@]([2H])(N)C(=O)O | – | PET | athymic nude mice, U-87 MG | dose not given, 60 min post-injection | reference: tumour over muscle | tumour-to-muscle ratio | 1.23 ± 0.23 |
| COc1ccccc1-c1n[nH]c2nc(NC3CCN(C(=O)Cc4ccc(F)cc4F)CC3)ncc12 | – | bead binding, competition bead pull-down, measured: LINJ.28.2610 | Leishmania donovani axenic amastigote extract | 10 µM | reference: vehicle | relative abundance | 1.14 |
